Results from different studies.
Numbered parts are unrelated; each lists some results of a single study. Positions count from the first letter of the parent shown.

Study 1 — technique: protein-binding microarray; molecule type: double-stranded DNA, one strand shown; matrix: in vitro; tested at: not given; direction: higher = stronger binding
Target: Hepatocyte nuclear factor 3-beta, forkhead domain (FOXA2, Homo sapiens, UniProt Q9Y261, residues 142-269)
Setting: k-mer, scored over probes, only values ≥0.25
Target sequence (chain): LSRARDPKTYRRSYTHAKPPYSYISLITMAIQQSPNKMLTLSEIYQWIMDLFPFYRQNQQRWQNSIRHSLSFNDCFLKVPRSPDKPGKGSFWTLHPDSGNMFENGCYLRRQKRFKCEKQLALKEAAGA
| Oligonucleotide | E-score |
| --- | --- |
| ACTACATA | 0.317 |
| CATAATAA | 0.26 |
| TATGCATA | 0.262 |
| ACCTTGTA | 0.291 |
| AATTGTTC | 0.268 |
| TACTAGTA | 0.296 |
| CATTTATC | 0.301 |
| ATATGTTA | 0.369 |
| GTATGTAA | 0.38 |
| AATATATT | 0.31 |

Study 2 — target: OGT, full length, His-tagged (human); technique: phage display, sequencing; matrix: in vitro; tested at: 1 µg OGT; reference: input library; direction: higher = stronger binding; starting sequence: peptide; TAPFYPPAYQIQVFK
Setting: single substitutions, 15-mer displayed peptide, unchanged parent 19.6
| Change | fold enrichment |
| --- | --- |
| I11K | 0.545 fold |
| Q10E | 1.25 fold |
| Q10F | 3.26 fold |
| P6Y | 3.78 fold |
| K15N | 7.59 fold |
| T1N | 22.9 fold |
| Y5Q | 1.01 fold |
| P7Q | 1.1 fold |
| K15V | 9.61 fold |
| P3R | 14.7 fold |
| V13L | 17.4 fold |
| I11P | 0.776 fold |

Study 3 — target: CCNA2, cyclin fold, Cln2 fusion (human); technique: yeast growth competition, sequencing; matrix: yeast; setting: weak parent motif; reference: not given; direction: higher = stronger binding
Starting sequence: MASTL docking peptide (human); PMIAKNLMCELDE
| Change | normalised enrichment score |
| --- | --- |
| A4W | 0.0623 |
| E10V | 0.361 |
| L7D | -0.288 |
| L11G | -0.00987 |
| M2V | -0.0821 |
| L7F | -0.362 |
| M8V | -0.202 |
| M2K | 0.398 |
| N6L | -0.0169 |

Mixed results
| Molecule | target | assay | system | conditions | how to read | endpoint | result |
| --- | --- | --- | --- | --- | --- | --- | --- |
| PhoQ, residues 284 288 289 292 302 303 SLSVQF | PhoP, residues 12 14 15 18 19 GHCSL (Escherichia coli, UniProt P23836) | Sort-seq, measured: YFP reporter | E. coli | PhoQ-PhoP variant library, together with: 10 µM Mg2+ | reference: high Mg2+ state, higher = stronger signaling | fold induction | 14.6 |

Repeated from above (study 1):
| Oligonucleotide | E-score |
| --- | --- |
| TATGCATA | 0.262 |
| ACCTTGTA | 0.291 |
| AATTGTTC | 0.268 |
| TACTAGTA | 0.296 |
